# Measured values gathered from unrelated publications.
# A part holds a random share of what one study measured. Several values in a cell are separate wells, animals, samples, runs or records.
# UniProt Q52WX2, sequence (whole entry, looked up): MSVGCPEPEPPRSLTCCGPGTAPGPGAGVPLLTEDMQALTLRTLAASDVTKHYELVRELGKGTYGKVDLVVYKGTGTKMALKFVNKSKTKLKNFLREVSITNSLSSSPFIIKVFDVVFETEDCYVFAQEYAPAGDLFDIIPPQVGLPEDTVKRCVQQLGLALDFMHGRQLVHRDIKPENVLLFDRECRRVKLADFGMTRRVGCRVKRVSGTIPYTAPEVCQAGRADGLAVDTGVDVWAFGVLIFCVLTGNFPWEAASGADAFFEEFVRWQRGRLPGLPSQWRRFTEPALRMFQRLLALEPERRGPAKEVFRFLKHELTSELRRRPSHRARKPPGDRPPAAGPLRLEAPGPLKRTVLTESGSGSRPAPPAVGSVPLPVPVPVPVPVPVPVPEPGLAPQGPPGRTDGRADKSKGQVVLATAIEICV
# UniProt Q96SB4, sequence (whole entry, looked up): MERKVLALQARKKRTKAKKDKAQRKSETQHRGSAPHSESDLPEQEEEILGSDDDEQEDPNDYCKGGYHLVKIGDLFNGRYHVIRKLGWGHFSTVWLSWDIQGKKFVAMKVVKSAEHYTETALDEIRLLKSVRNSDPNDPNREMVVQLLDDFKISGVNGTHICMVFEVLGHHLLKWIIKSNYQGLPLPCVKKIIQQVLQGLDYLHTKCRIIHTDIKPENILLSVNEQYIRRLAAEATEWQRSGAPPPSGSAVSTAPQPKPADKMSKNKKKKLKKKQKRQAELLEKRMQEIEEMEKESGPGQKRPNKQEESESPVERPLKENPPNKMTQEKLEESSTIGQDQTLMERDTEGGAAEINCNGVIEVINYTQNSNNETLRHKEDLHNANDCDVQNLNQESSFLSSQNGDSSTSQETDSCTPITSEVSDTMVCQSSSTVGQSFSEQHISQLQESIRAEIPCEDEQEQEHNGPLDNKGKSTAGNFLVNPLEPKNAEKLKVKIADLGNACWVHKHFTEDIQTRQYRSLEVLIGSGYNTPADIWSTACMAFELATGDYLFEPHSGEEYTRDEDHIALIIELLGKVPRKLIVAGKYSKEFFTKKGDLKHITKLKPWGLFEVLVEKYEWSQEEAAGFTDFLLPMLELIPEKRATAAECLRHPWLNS
# UniProt Q86UX6, sequence (whole entry, looked up): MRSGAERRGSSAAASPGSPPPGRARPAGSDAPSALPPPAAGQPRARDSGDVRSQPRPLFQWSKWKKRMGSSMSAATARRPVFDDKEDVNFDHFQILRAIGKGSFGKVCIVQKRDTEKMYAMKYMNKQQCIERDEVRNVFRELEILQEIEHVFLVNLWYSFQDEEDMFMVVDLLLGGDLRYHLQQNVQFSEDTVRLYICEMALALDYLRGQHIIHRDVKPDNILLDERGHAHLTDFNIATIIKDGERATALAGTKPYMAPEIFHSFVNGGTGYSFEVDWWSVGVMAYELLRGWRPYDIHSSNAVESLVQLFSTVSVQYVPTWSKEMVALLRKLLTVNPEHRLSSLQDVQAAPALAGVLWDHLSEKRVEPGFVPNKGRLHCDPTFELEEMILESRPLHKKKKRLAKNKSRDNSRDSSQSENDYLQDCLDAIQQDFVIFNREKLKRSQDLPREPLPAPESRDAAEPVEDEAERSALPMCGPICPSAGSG

# Series 1 — read-out: enzyme activity; action: inhibitor; tested at: 0.5 µM; baseline: control
# Target: Aurora kinase B (AURKB, Homo sapiens, UniProt Q96GD4)
# UniProt Q96GD4, sequence (whole entry, looked up): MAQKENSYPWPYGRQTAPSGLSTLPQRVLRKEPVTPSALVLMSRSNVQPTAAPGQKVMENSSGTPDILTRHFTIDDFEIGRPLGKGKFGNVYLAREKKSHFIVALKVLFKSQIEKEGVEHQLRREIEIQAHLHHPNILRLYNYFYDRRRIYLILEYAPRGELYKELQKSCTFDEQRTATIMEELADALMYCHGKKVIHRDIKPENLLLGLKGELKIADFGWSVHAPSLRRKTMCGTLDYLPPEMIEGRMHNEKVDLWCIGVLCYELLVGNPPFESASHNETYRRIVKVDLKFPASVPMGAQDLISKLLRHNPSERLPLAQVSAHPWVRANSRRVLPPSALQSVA
SMILES,remaining activity
O=C(Nc1ccc(Cl)cc1)c1ccccc1NCc1ccncc1,77.7%
CCN1/C(=C/C(C)=O)Sc2ccc(OC)cc21,87.9%
CN(C)CCCn1cc(C2=C(c3c[nH]c4ccccc34)C(=O)NC2=O)c2ccccc21,86.6%
COc1ccc(-c2cnc3c(-c4ccsc4)cnn3c2)cc1,50.8%
COc1cc2ncc(-c3ccccc3)nc2cc1OC,74.4%
CCC(=O)Nc1ccc2ncnc(Nc3cccc(Br)c3)c2c1,95.4%
Cc1ccc(NC(=O)c2ccc(CN3CCN(C)CC3)cc2)cc1Nc1nccc(-c2cccnc2)n1,97.2%
Cn1cnc2cc3c(Nc4cccc(Br)c4)ncnc3cc21,78.2%
C[S+]([O-])c1ccc(-c2nc(-c3ccncc3)c(-c3ccc(F)cc3)[nH]2)cc1 (centres unmarked),87.7%
CC(C)[C@H](CO)Nc1nc(Nc2cccc(Cl)c2)c2ncn(C(C)C)c2n1,97%
O=C1NC(=O)/C(=C/c2ccc3nccnc3c2)S1,101%
Cn1cc(/C=C2\C(=O)Nc3ccc(S(N)(=O)=O)cc32)c2ccccc21,10.5%
Nc1[nH]nc2nnc(-c3c(-c4ccccc4)nn4ccccc34)cc12,96.8%
CC(=O)O/N=C1/C(c2c(O)[nH]c3cc(Br)ccc23)=Nc2ccccc21,81%
O=c1cc(N2CCOCC2)oc2c1ccc1ccccc12,97.6%
CCOc1cc2ncnc(Nc3cccc(Br)c3)c2cc1OCC,91.9%
COc1cc2ncnc(N3CCN(C(=O)Nc4ccc(Oc5ccccc5)cc4)CC3)c2cc1OC,76.1%
Cc1nc(Nc2ncc(C(=O)Nc3c(C)cccc3Cl)s2)cc(N2CCN(CCO)CC2)n1,92.5%
COc1cc2ncnc(Nc3ccc(OCc4ccccc4)cc3)c2cc1OC,50.3%
COc1ccc(Cl)cc1NC(=O)Nc1cc(C)nc2ccccc12,95.9%
CC(C)c1nn(-c2c(Cl)cccc2Cl)c2nc(Cc3ccc(OCCO)cc3)[nH]c(=O)c12,104%

# Series 2 — read-out: cell-free assay; technique: competition with immobilised ligand; tested at: 1 µM
# SMILES: CN([C@@H]1CCc2c(CC(=O)O)c3cc(S(C)(=O)=O)ccc3n2C1)S(=O)(=O)c1ccc(F)cc1
target,remaining binding [%]
"ERN1 (Homo sapiens, UniProt O75460)",100
"NEK5 (Homo sapiens, UniProt Q6P3R8)",100
"MAP3K19 (Homo sapiens, UniProt Q56UN5)",79
"AKT2 (Homo sapiens, UniProt P31751)",92
"SRPK1 (Homo sapiens, UniProt Q96SB4)",100
"MAP3K15 (Homo sapiens, UniProt Q6ZN16)",93
"SBK1 (Homo sapiens, UniProt Q52WX2)",100
"EGFR (Homo sapiens, UniProt P00533, L858R)",91
"Receptor-type tyrosine-protein kinase FLT3, autoinhibited (FLT3, Homo sapiens, UniProt P36888)",100
"HCK (Homo sapiens, UniProt P08631)",87
"BMPR2 (Homo sapiens, UniProt Q13873)",100
"CDK17 (Homo sapiens, UniProt Q00537)",100
"Tyrosine-protein kinase ABL1, non-phosphorylated (ABL1, Homo sapiens, UniProt P00519, F317L)",90
"EPHA8 (Homo sapiens, UniProt P29322)",98
"MAP2K4 (Homo sapiens, UniProt P45985)",75
"STK32C (Homo sapiens, UniProt Q86UX6)",100
"FLT3 (Homo sapiens, UniProt P36888, D835V/ITD)",91

# Series 3 — read-out: enzyme activity; action: inhibitor; tested at: 77 µM; baseline: untreated
# Target: DNA polymerase theta, ATPase domain (POLQ, Homo sapiens, UniProt O75417)
# UniProt O75417, sequence (whole entry, unmodified, looked up): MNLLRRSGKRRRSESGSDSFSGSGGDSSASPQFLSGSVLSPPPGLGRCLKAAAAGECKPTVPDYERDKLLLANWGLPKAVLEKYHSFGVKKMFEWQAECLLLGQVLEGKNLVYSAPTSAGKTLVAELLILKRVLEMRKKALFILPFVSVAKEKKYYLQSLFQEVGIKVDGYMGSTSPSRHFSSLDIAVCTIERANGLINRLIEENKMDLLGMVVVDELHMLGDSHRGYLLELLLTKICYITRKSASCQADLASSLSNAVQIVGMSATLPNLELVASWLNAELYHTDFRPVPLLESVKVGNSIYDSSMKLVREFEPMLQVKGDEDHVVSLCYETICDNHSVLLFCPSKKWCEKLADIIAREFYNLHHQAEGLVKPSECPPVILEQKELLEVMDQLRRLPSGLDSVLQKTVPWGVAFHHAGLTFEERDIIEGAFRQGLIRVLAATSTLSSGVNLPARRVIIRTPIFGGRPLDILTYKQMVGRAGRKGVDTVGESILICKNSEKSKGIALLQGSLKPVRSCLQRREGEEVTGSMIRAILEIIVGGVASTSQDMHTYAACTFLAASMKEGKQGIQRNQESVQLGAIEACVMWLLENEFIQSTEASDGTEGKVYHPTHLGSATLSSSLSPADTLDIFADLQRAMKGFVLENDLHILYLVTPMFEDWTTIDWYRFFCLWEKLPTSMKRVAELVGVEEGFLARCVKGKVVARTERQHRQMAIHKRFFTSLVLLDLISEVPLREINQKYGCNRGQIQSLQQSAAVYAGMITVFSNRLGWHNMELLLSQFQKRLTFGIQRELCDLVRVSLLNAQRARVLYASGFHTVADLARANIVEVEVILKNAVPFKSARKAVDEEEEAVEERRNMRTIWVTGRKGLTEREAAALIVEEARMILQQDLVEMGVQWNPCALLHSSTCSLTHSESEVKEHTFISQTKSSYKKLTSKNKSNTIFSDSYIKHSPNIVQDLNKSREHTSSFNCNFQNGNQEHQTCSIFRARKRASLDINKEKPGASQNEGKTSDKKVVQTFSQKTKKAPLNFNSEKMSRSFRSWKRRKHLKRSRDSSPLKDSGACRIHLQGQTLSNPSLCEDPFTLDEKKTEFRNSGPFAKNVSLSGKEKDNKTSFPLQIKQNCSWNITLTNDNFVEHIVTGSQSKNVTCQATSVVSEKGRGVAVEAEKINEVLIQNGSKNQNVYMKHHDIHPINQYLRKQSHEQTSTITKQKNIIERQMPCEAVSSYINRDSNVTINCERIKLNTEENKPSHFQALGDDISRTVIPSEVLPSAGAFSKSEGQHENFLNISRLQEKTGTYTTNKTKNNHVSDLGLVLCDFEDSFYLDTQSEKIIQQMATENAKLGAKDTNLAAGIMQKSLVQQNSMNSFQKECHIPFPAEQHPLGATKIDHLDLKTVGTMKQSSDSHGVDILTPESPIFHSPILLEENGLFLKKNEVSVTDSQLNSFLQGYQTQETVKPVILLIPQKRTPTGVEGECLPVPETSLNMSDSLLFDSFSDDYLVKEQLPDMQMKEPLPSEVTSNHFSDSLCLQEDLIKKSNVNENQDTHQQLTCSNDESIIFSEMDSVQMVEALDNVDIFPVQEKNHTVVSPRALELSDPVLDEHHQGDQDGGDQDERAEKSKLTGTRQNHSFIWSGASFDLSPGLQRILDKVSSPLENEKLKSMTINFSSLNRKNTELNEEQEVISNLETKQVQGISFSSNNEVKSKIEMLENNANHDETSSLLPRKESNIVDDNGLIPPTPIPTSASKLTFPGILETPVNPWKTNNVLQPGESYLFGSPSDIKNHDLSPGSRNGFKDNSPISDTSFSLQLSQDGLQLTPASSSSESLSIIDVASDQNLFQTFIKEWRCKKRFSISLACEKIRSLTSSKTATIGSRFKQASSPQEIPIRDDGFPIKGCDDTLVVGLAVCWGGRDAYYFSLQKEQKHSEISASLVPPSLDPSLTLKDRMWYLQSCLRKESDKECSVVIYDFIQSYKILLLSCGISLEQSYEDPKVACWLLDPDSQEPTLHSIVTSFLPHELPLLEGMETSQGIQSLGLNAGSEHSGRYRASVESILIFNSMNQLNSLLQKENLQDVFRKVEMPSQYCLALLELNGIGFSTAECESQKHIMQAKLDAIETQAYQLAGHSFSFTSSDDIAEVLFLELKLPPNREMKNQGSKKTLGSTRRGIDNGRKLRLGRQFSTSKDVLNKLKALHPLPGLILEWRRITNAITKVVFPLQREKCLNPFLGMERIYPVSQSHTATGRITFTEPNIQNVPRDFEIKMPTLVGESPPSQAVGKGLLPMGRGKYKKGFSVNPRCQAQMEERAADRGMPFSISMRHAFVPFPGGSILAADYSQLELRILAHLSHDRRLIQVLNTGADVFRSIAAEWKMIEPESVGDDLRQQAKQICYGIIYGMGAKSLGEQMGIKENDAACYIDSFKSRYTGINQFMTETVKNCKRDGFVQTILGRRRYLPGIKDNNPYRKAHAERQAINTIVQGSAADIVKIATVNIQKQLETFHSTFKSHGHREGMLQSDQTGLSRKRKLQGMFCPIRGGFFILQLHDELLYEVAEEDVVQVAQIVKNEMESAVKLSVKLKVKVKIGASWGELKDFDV
Structure (SMILES),remaining activity
COC(=O)C(N)Cc1ccc(Cl)cc1 (racemic),93.3%
COc1nc(C)cnc1NS(=O)(=O)c1cccnc1-c1ccc(-c2nnco2)cc1,100%
Cc1cc(O)c2c(c1)C(=O)c1cc(O)cc(O)c1C2=O,95.1% and 93.2%
CC(C)(F)C[C@H](N[C@@H](c1ccc(-c2ccc(S(C)(=O)=O)cc2)cc1)C(F)(F)F)C(=O)NC1(C#N)CC1,87.4%
Clc1ccc(C(Cn2ccnc2)OCc2csc3c(Cl)cccc23)c(Cl)c1 (centres unmarked),99.6% and 101%
COc1cc(C(=O)NC2CCCNC2)cc(OC)c1OC (centres unmarked),96.3%
CCN(CC)CCNC(=O)c1cc(Cl)c(N)cc1OC,98% and 102%
COCCOc1nc(-c2ccc(Cl)c(Cl)c2)n(-c2ccc(NC(=O)CCl)cc2)n1,94.4%
N[C@@H](Cc1ccc(F)cc1)C(=O)O,101%
COc1cc(C=O)ccc1O,99.7%
O=c1[nH]cnc2[nH]ncc12,101%
CCC1(c2ccccc2)NC(=O)N(C)C1=O (centres unmarked),96.1%
CO[C@H]1/C=C/O[C@@]2(C)Oc3c(C)c(O)c4c(O)c(c(/C=N/N5CCN(C6CCCC6)CC5)c(O)c4c3C2=O)NC(=O)/C(C)=C\C=C\[C@H](C)[C@H](O)[C@@H](C)[C@@H](O)[C@@H](C)[C@H](OC(C)=O)[C@@H]1C,89.1%
O=C(NCCNCC(O)COc1ccc(O)cc1)N1CCOCC1 (centres unmarked),104%

# Series 4 — read-out: enzyme activity; action: inhibitor; tested at: 10 µM
# Target: Calcium/calmodulin-dependent protein kinase type II subunit alpha (CAMK2A, Homo sapiens, UniProt Q9UQM7)
# UniProt Q9UQM7, sequence (whole entry, looked up): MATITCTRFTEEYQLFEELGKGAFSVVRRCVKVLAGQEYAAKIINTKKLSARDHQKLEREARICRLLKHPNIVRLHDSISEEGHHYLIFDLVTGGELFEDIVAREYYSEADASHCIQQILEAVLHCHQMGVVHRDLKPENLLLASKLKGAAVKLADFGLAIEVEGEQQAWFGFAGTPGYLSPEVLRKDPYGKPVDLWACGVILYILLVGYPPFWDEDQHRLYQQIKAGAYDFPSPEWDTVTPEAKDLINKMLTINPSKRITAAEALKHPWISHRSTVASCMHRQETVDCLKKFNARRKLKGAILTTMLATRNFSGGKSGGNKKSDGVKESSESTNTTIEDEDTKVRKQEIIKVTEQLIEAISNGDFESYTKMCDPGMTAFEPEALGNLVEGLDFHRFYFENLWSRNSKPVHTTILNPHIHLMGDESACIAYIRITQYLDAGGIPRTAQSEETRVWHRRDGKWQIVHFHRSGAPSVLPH
SMILES,inhibition
Cc1cc(O)cc(O)c1,-13%
COc1ccc(CCN2CCC(Nc3nc4ccccc4n3Cc3ccc(F)cc3)CC2)cc1,-5%
O=C(OC1C[C@H]2CC[C@@H](C1)[N+]21CCCC1)C(O)(c1ccccc1)c1ccccc1 (some centres unmarked),2%
COc1cc(O)c2c(c1)O[C@H](c1ccc(O)cc1)CC2=O,13%
O=CC1OC(=O)c2cc(O)c(O)c(O)c2-c2c(cc(O)c(O)c2O)C(=O)OC1C1OC(=O)c2cc(O)c(O)c(O)c2-c2c(O)c(O)c3oc(=O)c4c(c(O)c(O)c5oc(=O)c2c3c54)-c2c(cc(O)c(O)c2O)C(=O)OCC1O (centres unmarked),-77%
CC(C)(C)NC(=O)[C@H]1CC[C@H]2[C@@H]3CC[C@H]4NC(=O)C=C[C@]4(C)[C@H]3CC[C@]12C,-2%
CC1(C)CC[C@]2(C(=O)O)CC[C@]3(C)C(=CC[C@@H]4[C@@]5(C)C[C@@H](O)[C@H](O)C(C)(C)[C@@H]5CC[C@]43C)[C@@H]2C1,-23%
CCS(=O)(=O)CCn1c([N+](=O)[O-])cnc1C,-2%
C=C1CCC[C@]2(C)CC[C@@H](C(C)(C)O)C[C@@H]12,2%
CC1=C(C)C(=O)C(CCCCCCCCCC[P+](c2ccccc2)(c2ccccc2)c2ccccc2)=CC1=O,-5%
CC(=O)O[C@]1(C(C)=O)CC[C@H]2[C@@H]3C=C(C)C4=CC(=O)CC[C@]4(C)[C@H]3CC[C@@]21C,-3%
CC[C@@H]1C(=O)N(C)c2cnc(Nc3ccc(C(=O)N[C@H]4CC[C@H](N5CCN(CC6CC6)CC5)CC4)cc3OC)nc2N1C(C)C,22%
COC(=O)c1ccc2c(c1)NC(=O)/C2=C(\Nc1ccc(N(C)C(=O)CN2CCN(C)CC2)cc1)c1ccccc1,0.05% and 0.12%
C=C(C)C1CC=C(C)C(O)C1 (mixture of isomers),9%
CCCNC(=O)NS(=O)(=O)c1ccc(Cl)cc1,0%
O=C(O)c1ccc(CO)o1,-2%
C=C(C)[C@H](CC=C(C)C)Cc1c(O)cc(OC)c2c1O[C@H](c1ccc(O)cc1OC)CC2=O,5%
COc1cc2c(cc1OC)[C@H]1CC(=O)[C@H](CC(C)C)CN1CC2 (racemic),0.06%
O=Cc1ccccc1C(=O)O,2%
Nc1cc(C(=O)O)ccc1O,-23%
CC1=C\[C@@H](O)CC(=O)Cc2nc(co2)C(=O)N2CCC=C2C(=O)O[C@H](C(C)C)[C@H](C)/C=C/C(=O)NC\C=C\1,-18%
C[C@H]1[C@H](C)CC[C@]2(C(=O)O)CC[C@]3(C)C(=CC[C@@H]4[C@@]5(C)CCC(=O)C(C)(C)[C@@H]5CC[C@]43C)[C@H]12,1%
